# Experimental data from different studies.
# A part holds a random share of what one study measured. “And” joins repeats or separate records; there may be more than shown.

# Series 1 — cell line: A-375; concentration: 100 µM; time: 18 h
SMILES,viability [%]
CCCCCCC(=O)O[C@H]1CC[C@H]2[C@@H]3CCC4=CC(=O)CC[C@]4(C)[C@H]3CC[C@]12C,7.71
N[C@@H](Cc1ccc(N(CCCl)CCCl)cc1)C(=O)O,28.9
CCC1(c2cccc(O)c2)CCCCN(C)C1 (stereo not shown),97.8
C/C=C(\C)C(=O)N[C@@H](c1ccccc1)[C@@H](O)C(=O)O[C@H]1C[C@@]2(O)[C@@H](OC(=O)c3ccccc3)[C@@H]3[C@]4(OC(C)=O)CO[C@@H]4C[C@H](O)[C@@]3(C)C(=O)[C@H](OC(C)=O)C(=C1C)C2(C)C,55.4
CCOC(=O)Nc1ccc(NCc2ccc(F)cc2)cc1N,95
COc1ccc(OC)c([C@@H](O)[C@H](C)N)c1,90.9
CCC(=O)O[C@H]1CC[C@H]2[C@@H]3CCC4=CC(=O)CC[C@]4(C)[C@H]3CC[C@]12C,15.9

# Series 2 — organism: Sarcocystis neurona; observed: parasite growth; concentration: 10 µM; time: 96 h; baseline: untreated
SMILES,log2 fold change
C[C@]12CCC(=O)C=C1CC[C@@H]1[C@@H]2CC[C@@]2(C)[C@H]1CC[C@]2(C)O,-0.22
CC(C)N(CCC(C(N)=O)(c1ccccc1)c1ccccn1)C(C)C (stereo not shown),0.32
CNC1CC(c2ccc(Cl)c(Cl)c2)c2ccccc21 (stereo not shown),-0.2
CN1CCCC(n2nc(Cc3ccc(Cl)cc3)c3ccccc3c2=O)CC1 (stereo not shown),-2.57
O=c1[nH]cc(F)c(=O)[nH]1,-2.44
Oc1c(Cl)cc(Cl)c2cccnc12,-4.75
c1ccc2c3c([nH]c2c1)CNCC3,0.33
CCN(C(C)=O)c1cccc(-c2ccnc3c(C#N)cnn23)c1,0.26
CCCC(C)(COC(N)=O)COC(=O)NC(C)C (stereo not shown),0.34

# Series 3 — concentration: 0.1 µM; baseline: DMSO
# Compound: CNC(=N)NCCC[C@H](NC(=O)[C@H](CC(C)C)NC(=O)NNC(=O)[C@H](Cc1ccccc1)NC(=O)[C@H](CO)NC(=O)[C@H](CC(N)=O)NC(=O)[C@@H](Cc1cccnc1)NC(=O)[C@H](N)Cc1ccc(O)cc1)C(=O)NCC(N)=O
cell line,method,setting,viability
colorectal tumour organoids,,,105%
sample B colorectal tumour organoid,,replicate 2,111%
sample I colorectal tumour organoid,,,127%
sample BA colorectal tumour organoid,,,81.2%
sample C colorectal tumour organoid,,replicate 1,88.9%
normal-adjacent epithelium patient-derived organoids sample H,CellTiter-Glo,,117% and 95.8%
sample B colorectal tumour organoid,,replicate 1,107%

# Series 4 — cell line: HEK-293T/ACE2; concentration: 10 µM; time: 16 h; baseline: vehicle
Compound,viability [%]
Cn1c(=O)c2c(ncn2CC(O)CO)n(C)c1=O (stereo not shown),97.3
Cc1c(-c2ccccc2)oc2c(C(=O)OCCN3CCCCC3)cccc2c1=O,102
C[C@]12CCC(=O)C=C1CC[C@@H]1[C@@H]2CC[C@@]2(C)[C@H]1CC[C@]2(C)O,98.8
COCCCOc1cc(C[C@@H](C[C@H](N)[C@@H](O)C[C@H](C(=O)NCC(C)(C)C(N)=O)C(C)C)C(C)C)ccc1OC,100
N#C/C(=C1/SC[C@@H](c2ccc(Cl)cc2Cl)S1)n1ccnc1,98.8
O=C1OC2(c3ccc(O)cc3Oc3cc(O)ccc32)c2ccccc21,98.3
COc1ccc2[nH]c([S+]([O-])Cc3ncc(C)c(OC)c3C)nc2c1 (stereo not shown),96.2
CCCCCCCCCCC[C@@H](C[C@@H]1OC(=O)[C@H]1CCCCCC)OC(=O)[C@H](CC(C)C)NC=O,90.8

# For quick reference, copied from above (series 4):
Compound,viability [%]
Cn1c(=O)c2c(ncn2CC(O)CO)n(C)c1=O (stereo not shown),97.3
Cc1c(-c2ccccc2)oc2c(C(=O)OCCN3CCCCC3)cccc2c1=O,102
C[C@]12CCC(=O)C=C1CC[C@@H]1[C@@H]2CC[C@@]2(C)[C@H]1CC[C@]2(C)O,98.8
